Measurements collected from several papers.
Lines come from different studies, so protocols differ. Numbers after ± are the reported error.
GLP1R: Glucagon-like peptide 1 receptor (GLP1R, Homo sapiens, UniProt P43220)
UniProt P43220, sequence (whole entry, looked up): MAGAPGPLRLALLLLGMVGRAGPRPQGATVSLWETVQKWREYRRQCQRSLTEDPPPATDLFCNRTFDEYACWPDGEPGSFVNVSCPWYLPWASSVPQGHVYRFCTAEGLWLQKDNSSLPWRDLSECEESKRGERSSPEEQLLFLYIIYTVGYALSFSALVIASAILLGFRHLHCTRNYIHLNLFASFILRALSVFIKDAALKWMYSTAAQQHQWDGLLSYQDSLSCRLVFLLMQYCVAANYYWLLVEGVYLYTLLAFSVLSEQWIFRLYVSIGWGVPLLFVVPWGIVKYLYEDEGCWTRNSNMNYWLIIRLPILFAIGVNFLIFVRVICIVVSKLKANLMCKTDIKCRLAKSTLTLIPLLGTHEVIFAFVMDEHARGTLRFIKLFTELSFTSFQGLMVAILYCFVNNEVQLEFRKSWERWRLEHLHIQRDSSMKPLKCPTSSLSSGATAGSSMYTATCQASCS
UniProt P17931, sequence (whole entry, unmodified, looked up): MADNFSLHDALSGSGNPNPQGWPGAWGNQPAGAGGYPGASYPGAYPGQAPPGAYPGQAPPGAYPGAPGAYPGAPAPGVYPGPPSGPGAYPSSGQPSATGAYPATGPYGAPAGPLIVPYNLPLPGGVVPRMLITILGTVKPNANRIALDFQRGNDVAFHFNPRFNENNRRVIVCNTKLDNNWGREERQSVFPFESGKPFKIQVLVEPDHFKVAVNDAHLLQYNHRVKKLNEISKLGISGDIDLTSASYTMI
UniProt A7T1N0, sequence (whole entry, looked up): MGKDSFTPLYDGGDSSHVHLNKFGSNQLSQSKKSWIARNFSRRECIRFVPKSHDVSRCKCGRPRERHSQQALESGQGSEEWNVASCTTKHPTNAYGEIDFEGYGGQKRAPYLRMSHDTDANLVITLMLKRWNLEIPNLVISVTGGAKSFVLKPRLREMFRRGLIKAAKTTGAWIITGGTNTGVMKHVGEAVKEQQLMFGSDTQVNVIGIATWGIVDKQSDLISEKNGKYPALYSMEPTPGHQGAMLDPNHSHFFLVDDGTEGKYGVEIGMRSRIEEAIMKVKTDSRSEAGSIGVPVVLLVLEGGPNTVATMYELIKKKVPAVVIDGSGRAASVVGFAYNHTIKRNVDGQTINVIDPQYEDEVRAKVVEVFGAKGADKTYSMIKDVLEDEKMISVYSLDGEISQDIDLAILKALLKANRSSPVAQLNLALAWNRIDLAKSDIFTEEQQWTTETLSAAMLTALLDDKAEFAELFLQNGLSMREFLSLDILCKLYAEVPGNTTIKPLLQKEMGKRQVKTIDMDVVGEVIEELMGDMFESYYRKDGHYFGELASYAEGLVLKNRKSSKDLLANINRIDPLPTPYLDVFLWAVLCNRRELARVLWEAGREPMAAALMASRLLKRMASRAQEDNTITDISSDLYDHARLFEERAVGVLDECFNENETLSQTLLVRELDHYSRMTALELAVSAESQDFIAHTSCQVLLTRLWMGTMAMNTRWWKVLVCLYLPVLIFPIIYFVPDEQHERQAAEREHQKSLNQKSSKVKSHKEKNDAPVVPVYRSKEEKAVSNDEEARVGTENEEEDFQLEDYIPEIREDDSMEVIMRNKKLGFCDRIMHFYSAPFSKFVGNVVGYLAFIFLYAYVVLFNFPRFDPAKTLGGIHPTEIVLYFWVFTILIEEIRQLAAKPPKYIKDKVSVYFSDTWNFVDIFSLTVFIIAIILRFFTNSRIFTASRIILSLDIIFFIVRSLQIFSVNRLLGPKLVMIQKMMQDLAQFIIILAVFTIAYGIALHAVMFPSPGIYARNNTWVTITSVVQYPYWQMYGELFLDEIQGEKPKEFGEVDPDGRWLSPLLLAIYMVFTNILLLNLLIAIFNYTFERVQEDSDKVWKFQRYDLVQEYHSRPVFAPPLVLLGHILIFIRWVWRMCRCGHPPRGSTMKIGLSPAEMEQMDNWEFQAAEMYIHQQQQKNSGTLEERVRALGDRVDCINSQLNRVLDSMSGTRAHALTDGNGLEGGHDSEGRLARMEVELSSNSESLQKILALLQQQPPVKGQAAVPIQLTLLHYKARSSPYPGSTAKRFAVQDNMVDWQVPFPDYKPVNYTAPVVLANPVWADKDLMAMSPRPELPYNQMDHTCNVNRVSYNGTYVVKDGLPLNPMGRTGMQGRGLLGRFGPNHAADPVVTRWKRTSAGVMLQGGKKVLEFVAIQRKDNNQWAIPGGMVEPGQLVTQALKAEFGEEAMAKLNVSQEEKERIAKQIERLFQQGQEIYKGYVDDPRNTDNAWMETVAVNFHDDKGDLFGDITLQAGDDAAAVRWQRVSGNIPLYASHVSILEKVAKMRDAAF
UniProt P40337, sequence (whole entry, looked up): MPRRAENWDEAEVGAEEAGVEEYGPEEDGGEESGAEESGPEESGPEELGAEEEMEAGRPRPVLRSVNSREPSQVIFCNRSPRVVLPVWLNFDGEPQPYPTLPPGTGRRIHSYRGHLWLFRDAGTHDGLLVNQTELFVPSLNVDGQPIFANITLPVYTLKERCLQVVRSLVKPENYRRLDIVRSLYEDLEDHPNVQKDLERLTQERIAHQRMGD
UniProt P31153, sequence (whole entry, looked up): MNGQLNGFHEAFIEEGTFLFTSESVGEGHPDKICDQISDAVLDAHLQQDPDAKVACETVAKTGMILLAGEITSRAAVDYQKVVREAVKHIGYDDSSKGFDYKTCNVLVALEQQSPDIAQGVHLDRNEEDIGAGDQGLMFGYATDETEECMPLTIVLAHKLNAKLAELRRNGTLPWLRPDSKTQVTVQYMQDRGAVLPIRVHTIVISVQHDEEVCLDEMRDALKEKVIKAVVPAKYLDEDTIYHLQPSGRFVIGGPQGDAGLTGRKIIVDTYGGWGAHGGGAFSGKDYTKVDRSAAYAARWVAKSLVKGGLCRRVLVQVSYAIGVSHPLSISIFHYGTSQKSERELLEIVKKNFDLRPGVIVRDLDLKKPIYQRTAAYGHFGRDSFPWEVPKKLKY
UniProt P35869, sequence (whole entry, looked up): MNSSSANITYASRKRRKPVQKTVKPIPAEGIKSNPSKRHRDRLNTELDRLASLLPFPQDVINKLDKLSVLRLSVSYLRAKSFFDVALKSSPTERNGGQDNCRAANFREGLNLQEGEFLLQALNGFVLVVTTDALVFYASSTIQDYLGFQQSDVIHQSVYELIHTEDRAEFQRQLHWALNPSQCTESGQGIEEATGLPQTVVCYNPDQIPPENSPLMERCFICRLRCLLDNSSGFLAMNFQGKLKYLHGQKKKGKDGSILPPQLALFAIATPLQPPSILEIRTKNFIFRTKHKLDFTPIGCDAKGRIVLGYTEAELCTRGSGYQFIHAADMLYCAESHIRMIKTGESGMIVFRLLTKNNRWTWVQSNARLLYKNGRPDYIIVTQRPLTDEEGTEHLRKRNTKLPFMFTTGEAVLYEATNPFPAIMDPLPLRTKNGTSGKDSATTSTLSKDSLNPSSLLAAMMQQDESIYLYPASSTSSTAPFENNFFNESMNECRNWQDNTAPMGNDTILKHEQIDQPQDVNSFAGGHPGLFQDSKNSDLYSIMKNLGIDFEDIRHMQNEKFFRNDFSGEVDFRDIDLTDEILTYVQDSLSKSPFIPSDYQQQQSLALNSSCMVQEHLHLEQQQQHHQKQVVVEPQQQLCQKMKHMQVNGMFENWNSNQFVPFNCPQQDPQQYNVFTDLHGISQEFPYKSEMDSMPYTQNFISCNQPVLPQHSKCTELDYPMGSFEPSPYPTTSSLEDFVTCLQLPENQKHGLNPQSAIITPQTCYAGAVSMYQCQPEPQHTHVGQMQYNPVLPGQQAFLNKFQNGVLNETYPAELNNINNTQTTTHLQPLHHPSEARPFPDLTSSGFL
UniProt P10275, sequence (whole entry, looked up): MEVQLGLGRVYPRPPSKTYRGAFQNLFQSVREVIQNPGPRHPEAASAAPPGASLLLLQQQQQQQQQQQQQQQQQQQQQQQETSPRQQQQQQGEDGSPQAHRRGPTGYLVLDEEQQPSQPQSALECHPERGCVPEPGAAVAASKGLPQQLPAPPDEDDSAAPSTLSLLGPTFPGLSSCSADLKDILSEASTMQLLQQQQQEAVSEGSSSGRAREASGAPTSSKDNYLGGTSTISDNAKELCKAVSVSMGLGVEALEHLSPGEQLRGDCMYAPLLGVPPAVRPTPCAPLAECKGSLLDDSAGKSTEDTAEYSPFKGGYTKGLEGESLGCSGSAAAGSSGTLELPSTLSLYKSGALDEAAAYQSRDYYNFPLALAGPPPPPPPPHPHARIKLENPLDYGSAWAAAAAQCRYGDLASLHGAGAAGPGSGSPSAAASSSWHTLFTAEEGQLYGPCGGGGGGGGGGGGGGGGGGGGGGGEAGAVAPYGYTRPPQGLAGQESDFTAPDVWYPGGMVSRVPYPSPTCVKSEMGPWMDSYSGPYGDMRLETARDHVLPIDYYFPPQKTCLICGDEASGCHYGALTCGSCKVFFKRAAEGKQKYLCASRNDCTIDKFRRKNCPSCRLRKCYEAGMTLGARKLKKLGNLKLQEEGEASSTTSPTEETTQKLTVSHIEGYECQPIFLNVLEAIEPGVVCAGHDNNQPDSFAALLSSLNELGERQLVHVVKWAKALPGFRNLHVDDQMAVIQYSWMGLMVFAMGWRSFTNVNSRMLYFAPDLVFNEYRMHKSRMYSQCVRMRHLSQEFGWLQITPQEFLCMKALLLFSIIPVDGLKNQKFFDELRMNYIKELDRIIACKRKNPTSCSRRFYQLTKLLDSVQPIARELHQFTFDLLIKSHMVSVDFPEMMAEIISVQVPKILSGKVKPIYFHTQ
UniProt P25089, sequence (whole entry, looked up): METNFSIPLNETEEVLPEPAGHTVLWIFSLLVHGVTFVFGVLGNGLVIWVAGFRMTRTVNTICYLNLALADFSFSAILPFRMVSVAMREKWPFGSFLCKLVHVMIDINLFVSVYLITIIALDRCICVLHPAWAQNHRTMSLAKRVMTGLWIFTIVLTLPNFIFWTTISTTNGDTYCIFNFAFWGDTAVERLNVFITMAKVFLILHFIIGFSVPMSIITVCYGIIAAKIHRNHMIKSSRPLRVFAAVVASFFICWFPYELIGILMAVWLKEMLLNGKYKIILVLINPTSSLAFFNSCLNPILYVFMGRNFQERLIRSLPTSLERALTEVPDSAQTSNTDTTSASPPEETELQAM

Cc1ncsc1-c1ccc(CNC(=O)[C@@H]2C[C@@H](O)CN2C(=O)[C@@H](NC(=O)OC(C)(C)C)C(C)(C)C)cc1 — sensitivity ratio (von Hippel-Lindau disease tumor suppressor, with elongin B/C (VHL, Homo sapiens, UniProt P40337); TR-FRET vs FP; baseline: TR-FRET Ki over FP Kd): 3.09 fold
CC(C)(Cn1cc(-c2cnc3cccnn23)nn1)c1c[nH]c2ccccc12 — potentiation (GLP1R; positive allosteric modulator, measured: cAMP; added: GLP-1(9-36) V16A; baseline: wild-type GLP-1(9-36)): decreased
CCSc1nc2c([nH]1)c(=S)n(C)c(=S)n2C — remaining activity (Androgen receptor (AR, Homo sapiens, UniProt P10275); reporter gene, antagonist, PSA-luciferase; HeLa-A6; 10 µM, 24 h, added: 5 nM dihydrotestosterone; baseline: maximal activity): 86%
Nc1ncnc2c1ncn2C1OC(COP(=O)(O)OP(=O)(O)OCC2OC(O)C(O)C2O)C(O)C1O (stereo not drawn) — Hill coefficient (TRPM2 (Nematostella vectensis, UniProt A7T1N0); channel current, activator, inside-out patch clamp; global fit with epsilon analogue): 1.5 ± 0.1
O=c1c(Cl)c(Cl)cnn1Cc1ccccc1Cl — highest concentration without inhibition (Protein disulfide-isomerase (P4HB, Homo sapiens, UniProt P07237); insulin reductase activity, inhibitor): > 100 µM
CC[C@H](C)[C@H](NC(=O)[C@H](CCCCN)NC(=O)[C@H](CCCNC(=N)N)NC(=O)[C@H](CCCNC(=N)N)NC(=O)[C@H](Cc1c[nH]c2ccccc12)NC(=O)[C@H](CC(C)C)NC(=O)[C@@H](N)CCSC)C(=O)NCC(=O)N1CCC[C@H]1C(=O)N[C@@H](CCC(N)=O)C(=O)N[C@@H](CCSC)C(=O)N[C@H](C(=O)N[C@@H](CC(C)C)C(=O)N[C@@H](CO)C(=O)N[C@@H](Cc1c[nH]cn1)C(=O)N[C@@H](C)C(=O)N[C@@H](C)C(=O)NCC(=O)O)[C@@H](C)O — activity (N-formyl peptide receptor 3 (Homo sapiens, UniProt P25089); CHO-K1; concentration not given): inactive
CO[C@@H]([C@@H](O)[C@H](O)C(=O)CO)[C@@H](C)O — activity (3-dehydroquinate synthase, chloroplastic (DHQS, Arabidopsis thaliana, UniProt Q8VYV7); enzyme activity; concentration not given): inactive
COc1c(F)c(F)c(C(=O)N[C@H]2[C@@H](O)[C@@H](CO)O[C@@H](S[C@@H]3O[C@H](CO)[C@H](O)[C@H](NC(=O)c4c(F)c(F)c(OC)c(F)c4F)[C@H]3OS(=O)(=O)O)[C@@H]2O)c(F)c1F — ΔH (Galectin-3 (LGALS3, Homo sapiens, UniProt P17931); ITC): -11.2 ± 0.143 kcal/mol
COc1ccc(-c2cc(C(F)(F)F)nc(NCc3ccc(Cl)cc3)n2)cc1OC — cooperativity factor alpha (GLP1R; affinity cooperativity, allosteric modulator; HEK-293T overexpressing GLP1R; added: GLP-1): 3 to 5
CC(C)C1=CC23CCC4C(C)(C(=O)O)CCCC4(C)C2CC1C(C(=O)O)C3C(=O)O (stereo not drawn) — half-maximal quenching concentration ratio (Replication protein A 70 kDa DNA-binding subunit (RPA1, Homo sapiens, UniProt P27694, R41E/R43E); tryptophan fluorescence quenching; baseline: this construct over wild-type RPA): ~8 fold
CCC(=O)N(C)c1ccc(Cl)c(Cl)c1 — fold activation (Aryl hydrocarbon receptor (AHR, Homo sapiens, UniProt P35869); reporter gene, agonist; 3.2 µM; baseline: vehicle): 1.86 fold
Nc1ncnc2c1ncn2[C@@H]1O[C@H](COP(=O)(O)OP(=O)(O)NP(=O)(O)O)[C@@H](O)[C@H]1O — steady-state rate (S-adenosylmethionine synthase isoform type-2 (MAT2A, Homo sapiens, UniProt P31153); AdoMet formation, substrate; enzyme 25 µM, added: methionine): 0.00022 ± 2.5e-05 s⁻¹

Repeated from above:
Cc1ncsc1-c1ccc(CNC(=O)[C@@H]2C[C@@H](O)CN2C(=O)[C@@H](NC(=O)OC(C)(C)C)C(C)(C)C)cc1 — sensitivity ratio (von Hippel-Lindau disease tumor suppressor, with elongin B/C (VHL, Homo sapiens, UniProt P40337); TR-FRET vs FP; baseline: TR-FRET Ki over FP Kd): 3.09 fold
O=c1c(Cl)c(Cl)cnn1Cc1ccccc1Cl — highest concentration without inhibition (Protein disulfide-isomerase (P4HB, Homo sapiens, UniProt P07237); insulin reductase activity, inhibitor): > 100 µM
